Measurements collected from several papers.
Protocols differ between the studies behind these lines.
blaNDM-1: Metallo-beta-lactamase type 2 (blaNDM-1, Klebsiella pneumoniae, UniProt C7C422)
Sequence of UniProt C7C422 (whole entry, looked up): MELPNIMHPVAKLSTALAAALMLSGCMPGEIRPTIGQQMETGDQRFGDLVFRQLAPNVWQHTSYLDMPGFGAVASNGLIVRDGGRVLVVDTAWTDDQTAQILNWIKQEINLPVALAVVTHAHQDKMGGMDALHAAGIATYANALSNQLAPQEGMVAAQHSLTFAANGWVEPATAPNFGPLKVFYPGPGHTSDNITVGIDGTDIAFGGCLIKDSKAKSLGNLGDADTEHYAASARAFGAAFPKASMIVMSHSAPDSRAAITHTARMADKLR
MCA2: Metacaspase-2 (MCA2, Trypanosoma brucei brucei, UniProt Q585F3)
Sequence of UniProt Q585F3 (whole entry, looked up): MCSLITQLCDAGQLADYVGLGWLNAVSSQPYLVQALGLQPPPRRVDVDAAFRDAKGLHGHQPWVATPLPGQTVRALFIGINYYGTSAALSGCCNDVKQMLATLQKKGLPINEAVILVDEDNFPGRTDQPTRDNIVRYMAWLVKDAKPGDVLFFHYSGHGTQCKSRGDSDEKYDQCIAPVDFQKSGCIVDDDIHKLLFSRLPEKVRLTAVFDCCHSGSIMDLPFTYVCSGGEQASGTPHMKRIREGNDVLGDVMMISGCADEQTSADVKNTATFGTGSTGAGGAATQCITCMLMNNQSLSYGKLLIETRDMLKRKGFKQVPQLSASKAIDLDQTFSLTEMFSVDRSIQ
Sequence of UniProt P33535 (whole entry, looked up): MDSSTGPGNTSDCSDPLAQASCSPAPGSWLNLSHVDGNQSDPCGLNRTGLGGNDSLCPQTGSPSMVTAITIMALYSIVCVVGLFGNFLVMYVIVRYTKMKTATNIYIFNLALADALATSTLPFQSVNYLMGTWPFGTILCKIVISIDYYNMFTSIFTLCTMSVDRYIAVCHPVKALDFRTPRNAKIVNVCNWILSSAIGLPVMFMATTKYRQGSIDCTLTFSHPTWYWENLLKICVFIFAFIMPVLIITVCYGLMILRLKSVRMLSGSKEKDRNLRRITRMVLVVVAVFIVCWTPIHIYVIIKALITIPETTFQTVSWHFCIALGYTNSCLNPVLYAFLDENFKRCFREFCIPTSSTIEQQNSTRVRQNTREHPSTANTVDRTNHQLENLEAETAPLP
Sequence of UniProt P31652 (whole entry, looked up): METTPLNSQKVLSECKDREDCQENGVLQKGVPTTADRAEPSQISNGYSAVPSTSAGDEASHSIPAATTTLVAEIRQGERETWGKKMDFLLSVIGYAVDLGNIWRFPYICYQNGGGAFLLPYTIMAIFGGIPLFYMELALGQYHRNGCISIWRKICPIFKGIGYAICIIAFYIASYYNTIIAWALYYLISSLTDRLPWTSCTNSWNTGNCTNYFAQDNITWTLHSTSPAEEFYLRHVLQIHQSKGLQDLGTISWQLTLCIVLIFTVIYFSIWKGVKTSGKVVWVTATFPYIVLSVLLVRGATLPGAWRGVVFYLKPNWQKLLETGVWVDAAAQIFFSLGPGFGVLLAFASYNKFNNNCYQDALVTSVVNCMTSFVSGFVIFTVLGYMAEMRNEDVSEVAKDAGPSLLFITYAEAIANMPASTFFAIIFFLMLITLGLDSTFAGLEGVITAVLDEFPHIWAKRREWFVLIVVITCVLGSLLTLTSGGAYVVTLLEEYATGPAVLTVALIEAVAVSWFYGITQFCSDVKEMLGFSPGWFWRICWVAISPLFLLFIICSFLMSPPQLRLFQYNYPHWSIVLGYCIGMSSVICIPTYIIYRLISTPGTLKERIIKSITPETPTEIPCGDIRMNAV
Sequence of UniProt P41595 (whole entry, looked up): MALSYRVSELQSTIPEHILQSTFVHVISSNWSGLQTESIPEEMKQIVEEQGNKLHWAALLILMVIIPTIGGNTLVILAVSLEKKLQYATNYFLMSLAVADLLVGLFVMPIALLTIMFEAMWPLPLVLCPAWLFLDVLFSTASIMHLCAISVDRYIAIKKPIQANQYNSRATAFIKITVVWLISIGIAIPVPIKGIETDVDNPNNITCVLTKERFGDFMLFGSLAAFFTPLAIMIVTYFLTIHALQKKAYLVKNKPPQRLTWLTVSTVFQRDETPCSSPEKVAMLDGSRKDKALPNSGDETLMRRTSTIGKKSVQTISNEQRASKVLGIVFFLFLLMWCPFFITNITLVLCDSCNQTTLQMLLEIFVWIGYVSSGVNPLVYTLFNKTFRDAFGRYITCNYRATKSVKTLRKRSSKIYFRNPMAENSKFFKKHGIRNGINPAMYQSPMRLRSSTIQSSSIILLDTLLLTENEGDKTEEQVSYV
Sequence of UniProt Q2FDS6 (whole entry, looked up): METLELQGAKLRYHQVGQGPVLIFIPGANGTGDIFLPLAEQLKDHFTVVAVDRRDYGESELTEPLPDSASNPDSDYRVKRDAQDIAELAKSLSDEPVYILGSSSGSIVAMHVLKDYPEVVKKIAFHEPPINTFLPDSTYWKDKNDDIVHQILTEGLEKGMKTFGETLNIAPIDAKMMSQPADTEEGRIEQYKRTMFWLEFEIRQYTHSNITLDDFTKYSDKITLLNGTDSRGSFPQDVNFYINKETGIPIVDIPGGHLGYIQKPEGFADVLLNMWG
Sequence of UniProt Q13043 (whole entry, looked up): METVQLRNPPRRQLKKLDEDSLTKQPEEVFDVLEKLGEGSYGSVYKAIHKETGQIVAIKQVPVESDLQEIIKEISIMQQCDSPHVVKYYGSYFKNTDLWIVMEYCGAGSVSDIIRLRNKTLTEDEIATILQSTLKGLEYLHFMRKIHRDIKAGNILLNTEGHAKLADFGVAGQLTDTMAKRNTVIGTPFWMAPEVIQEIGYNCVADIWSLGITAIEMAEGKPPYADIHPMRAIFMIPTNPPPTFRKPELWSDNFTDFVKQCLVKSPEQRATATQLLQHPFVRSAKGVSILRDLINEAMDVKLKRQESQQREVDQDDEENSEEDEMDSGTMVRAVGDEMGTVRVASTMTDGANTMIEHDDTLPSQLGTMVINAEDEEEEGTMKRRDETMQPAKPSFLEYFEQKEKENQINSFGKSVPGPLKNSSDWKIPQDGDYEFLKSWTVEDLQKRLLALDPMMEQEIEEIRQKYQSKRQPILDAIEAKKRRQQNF
Sequence of UniProt P35916 (whole entry, looked up): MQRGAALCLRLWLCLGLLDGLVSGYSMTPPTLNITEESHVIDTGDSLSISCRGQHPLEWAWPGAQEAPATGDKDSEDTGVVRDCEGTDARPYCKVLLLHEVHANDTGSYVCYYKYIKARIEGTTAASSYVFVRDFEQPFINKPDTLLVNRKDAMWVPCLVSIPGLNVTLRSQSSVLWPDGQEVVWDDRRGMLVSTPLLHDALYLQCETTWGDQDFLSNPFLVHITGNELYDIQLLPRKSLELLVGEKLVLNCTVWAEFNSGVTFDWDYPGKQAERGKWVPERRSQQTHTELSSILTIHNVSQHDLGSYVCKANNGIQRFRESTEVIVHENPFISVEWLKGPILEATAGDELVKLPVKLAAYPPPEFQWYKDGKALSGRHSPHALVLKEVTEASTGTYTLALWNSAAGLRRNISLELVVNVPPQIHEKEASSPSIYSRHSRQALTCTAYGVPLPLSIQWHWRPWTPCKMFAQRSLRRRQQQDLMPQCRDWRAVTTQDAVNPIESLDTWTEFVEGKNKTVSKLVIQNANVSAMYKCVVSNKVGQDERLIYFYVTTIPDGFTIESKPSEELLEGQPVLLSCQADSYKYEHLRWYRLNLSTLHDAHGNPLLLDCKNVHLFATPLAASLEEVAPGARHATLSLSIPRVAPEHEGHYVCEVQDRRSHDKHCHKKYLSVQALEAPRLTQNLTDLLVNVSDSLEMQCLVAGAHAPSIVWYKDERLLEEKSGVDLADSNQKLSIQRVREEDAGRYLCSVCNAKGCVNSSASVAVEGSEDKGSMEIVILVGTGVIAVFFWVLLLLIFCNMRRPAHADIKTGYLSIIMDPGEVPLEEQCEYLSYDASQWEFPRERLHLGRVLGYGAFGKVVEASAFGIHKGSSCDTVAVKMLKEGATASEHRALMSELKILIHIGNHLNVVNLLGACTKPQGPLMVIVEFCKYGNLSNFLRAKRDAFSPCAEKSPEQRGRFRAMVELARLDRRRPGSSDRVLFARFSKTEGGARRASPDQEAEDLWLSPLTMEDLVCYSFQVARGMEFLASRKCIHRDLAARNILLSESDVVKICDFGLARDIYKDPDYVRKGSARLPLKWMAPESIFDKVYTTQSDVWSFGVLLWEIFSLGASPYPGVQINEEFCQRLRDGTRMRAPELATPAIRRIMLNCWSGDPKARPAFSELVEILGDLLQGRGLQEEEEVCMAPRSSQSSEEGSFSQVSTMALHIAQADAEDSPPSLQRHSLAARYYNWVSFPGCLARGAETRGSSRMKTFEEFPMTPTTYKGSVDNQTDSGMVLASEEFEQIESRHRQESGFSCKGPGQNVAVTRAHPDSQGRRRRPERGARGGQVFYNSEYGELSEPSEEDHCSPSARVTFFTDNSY
Sequence of UniProt P15090 (whole entry, looked up): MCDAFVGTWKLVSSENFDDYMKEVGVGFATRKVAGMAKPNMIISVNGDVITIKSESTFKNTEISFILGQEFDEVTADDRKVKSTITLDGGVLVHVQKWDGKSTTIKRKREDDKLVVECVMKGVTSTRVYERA

| SMILES | tested on | assay | test system | setting | how to read | measurement | value |
| --- | --- | --- | --- | --- | --- | --- | --- |
| CN(C)[C@H]1C[C@@]23CC[C@@]4(O2)C(=CC[C@]2(C)[C@@H](c5ccc6ccncc6c5)CC[C@H]24)C=C3[C@@H](O)[C@@H]1O | Serine/threonine-protein kinase 4 (STK4, Homo sapiens, UniProt Q13043) | ATP probe labelling, inhibitor, KiNativ profiling |  | 0.1 µM |  | inhibition | 6.4% |
| CC(C)C[C@@H]1NC(=O)[C@@H](CCCNC(=N)N)NC(=O)[C@@H]([C@H](C)O)NC(=O)[C@H](CCC(=O)O)NC(=O)[C@@H]2CCCN2C(=O)[C@H](CC(C)C)NC(=O)[C@@H]2CCCN2C(=O)[C@@H](CS)NC1=O | blaNDM-1 | enzyme activity, inhibitor |  | added: nitrocefin 1.5 µM |  | Ki | 45 µM |
| C[C@H](NC(=O)[C@H](CCCCN)NC(=O)c1ccccc1N)C(=O)N[C@@H](CCCNC(=N)N)C(=O)N1CCC[C@H]1C(=O)N[C@@H](CO)C(=O)N[C@@H](C)C(=O)N[C@@H](CCC(N)=O)C(=O)NCCNc1ccc([N+](=O)[O-])cc1[N+](=O)[O-] | MCA2 | enzyme activity, competitive inhibitor | Trypanosoma brucei | added: Z-FR-AMC substrate |  | Ki | 4.6 µM |
| COc1ccccc1-c1n[nH]c2nc(NC3CCN(C(=O)Cc4ccc(F)cc4F)CC3)ncc12 |  | bead binding, competition bead pull-down, refers to: LINJ.32.1060 | Leishmania donovani extract | 10 µM | relative to: vehicle | relative abundance | 0.89 |
| O=C1NC2(CC2)COc2ncc(F)cc2[C@H]2COCCN2c2ccn3ncc1c3n2 |  |  | Sprague-Dawley rat, female, plasma | oral, 5 mg/kg/day, end of recovery, 4-week repeated-dose toxicity |  | prothrombin time | 8.2 s |
| CCCC[C@@H]1NC(=O)[C@@H](CCC(N)=O)NC(=O)[C@H]2CCCN2C(=O)[C@H]([C@@H](C)CC)NC(=O)[C@@H]2C[C@@H](O)CN2C(=O)[C@H](Cc2ccccc2CN)NC(=O)[C@@H]2CCCN2C(=O)[C@@H](CS)NC1=O | blaNDM-1 | enzyme activity, inhibitor |  | added: nitrocefin 1.5 µM |  | Ki | 34.4 µM |
| OB(O)c1ccc(C(F)(F)F)s1 | Uncharacterized hydrolase SAUSA300_2518 (Staphylococcus aureus, UniProt Q2FDS6) | enzyme activity, inhibitor |  |  |  | Ki | 0.179 µM |
| C[C@H](NC(=O)[C@H](CCCCN)NC(=O)c1ccccc1N)C(=O)N[C@@H](CCCNC(=N)N)C(=O)N[C@@H](CO)C(=O)N1CCC[C@H]1C(=O)N[C@@H](C)C(=O)N[C@@H](CCC(N)=O)C(=O)NCCNc1ccc([N+](=O)[O-])cc1[N+](=O)[O-] | MCA2 | substrate |  | pH 7.4, 25 °C, added: 1 mM CaCl2 |  | Ki | 5.9 µM |
| CC(C)C[C@H](NC(=O)[C@H](CCCCN)NC(=O)[C@H](CCCCN)NC(=O)Cc1cccc(CNC(=O)[C@@H](C)NC(=N)N)c1)C(=O)O | Genome polyprotein, NS2B-NS3 protease (ZIKV, UniProt A0A024B7W1) | NS2B-NS3 protease activity, inhibitor |  |  |  | Ki | > 1 µM |
| CC(Cc1cccs1)NCc1ccc(Cl)cc1 (stereo not shown) | Sodium-dependent serotonin transporter (Slc6a4, Rattus norvegicus, UniProt P31652) | ligand displacement, radioligand |  |  |  | Ki | 2.7 µM |
| O=S(=O)(O)C(F)(F)C(F)(F)C(F)(F)C(F)(F)C(F)(F)C(F)(F)C(F)(F)C(F)(F)F | Fatty acid-binding protein, adipocyte (FABP4, Homo sapiens, UniProt P15090) | ligand displacement, fluorescence |  |  |  | Ki | 4.5 µM |
| COc1cc2c(cc1O)C(CCc1ccc(Cl)cc1)N(C)CC2 (stereo not shown) | 5-hydroxytryptamine receptor 2B (HTR2B, Homo sapiens, UniProt P41595) | cell-free assay, radioligand |  |  |  | Ki | 1.7 µM |
| CC(C)(C)C(=O)OCOP(=O)(OCOC(=O)C(C)(C)C)C1CCCN(O)C1=O (stereo not shown) | NCI-H23 |  |  |  |  | log GI50 | -6.25 log M |
| C[C@H](NC(=O)[C@H](CCCCN)NC(=O)c1ccccc1N)C(=O)N[C@@H](Cc1ccc(O)cc1)C(=O)N[C@@H](CO)C(=O)N[C@@H](CO)C(=O)N[C@@H](C)C(=O)N[C@@H](CCC(N)=O)C(=O)NCCNc1ccc([N+](=O)[O-])cc1[N+](=O)[O-] | MCA2 | enzyme activity, competitive inhibitor | Trypanosoma brucei | added: Z-FR-AMC substrate |  | Ki | 3.8 µM |
| CS(C)(=O)=Nc1ccc(-c2ccc(-c3nc4cc(O[C@@H]5CO[C@H]6[C@@H]5OC[C@H]6O)[nH]c4cc3F)cc2)cc1 | Vascular endothelial growth factor receptor 3 (FLT4, Homo sapiens, UniProt P35916) | enzyme activity, inhibitor |  | 10 µM |  | inhibition | 8% |
| Cc1cc(O)cc(C)c1C[C@H](N)C(=O)N[C@H](CCCNC(=N)N)C(=O)N[C@@H](Cc1ccccc1)C(=O)N[C@@H](CCCCN)C(=O)NCCCCCCCCCCNC(=O)[C@H](Cc1ccccc1)NC(=O)[C@H](CC1CCCCC1)NC[C@@H]1Cc2ccccc2CN1C(=O)[C@@H](N)Cc1ccc(O)cc1 | Mu-type opioid receptor (Oprm1, Rattus norvegicus, UniProt P33535) | ligand displacement, radioligand |  | cell membranes |  | Ki | 0.0334 µM |

Some of these lines once more:
| SMILES | tested on | assay | test system | setting | how to read | measurement | value |
| --- | --- | --- | --- | --- | --- | --- | --- |
| O=C1NC2(CC2)COc2ncc(F)cc2[C@H]2COCCN2c2ccn3ncc1c3n2 |  |  | Sprague-Dawley rat, female, plasma | oral, 5 mg/kg/day, end of recovery, 4-week repeated-dose toxicity |  | prothrombin time | 8.2 s |
| CC(C)C[C@H](NC(=O)[C@H](CCCCN)NC(=O)[C@H](CCCCN)NC(=O)Cc1cccc(CNC(=O)[C@@H](C)NC(=N)N)c1)C(=O)O | Genome polyprotein, NS2B-NS3 protease (ZIKV, UniProt A0A024B7W1) | NS2B-NS3 protease activity, inhibitor |  |  |  | Ki | > 1 µM |
